Assay results collected from several papers.
Every numbered part comes from another study and shows a few of its results, in no order. Substitutions count along the parent as printed.

Set 1
Target: Interferon regulatory factor 5, full length, phosphomimetic (IRF5, Homo sapiens, UniProt Q13568-2, residues 1-514, K96S/S451D/S453D/S456D/S462D)
Method: protein-binding microarray
Molecule type: double-stranded DNA, one strand shown
Sample: in vitro
Tested at: 250 nM
Setting: 60-bp whole probe
With: salmon DNA 0.4 mg/ml
Baseline: random background probes
Direction: higher = stronger binding
All sequences stand within: GCCTAGCAC … GTCTTGATTCGCTTGACGCTGCTG
Sequence	log fluorescence [z-score]
GACGGTTTCGACACCGGGGACGTGCTA	4.86
TGTGGCTTAGCTGTCACCTCGTGCTAG	-0.599
TACGGACTGCTTCTCCTGACGTGCTAG	-0.457
TCACTTCTTTTTTATTCTACTGTGCTA	1.28
TTAGATCTCAGTCTCTATTAGTGCTAG	0.293
TTACAACTGGGGTATCGATTAGTGCTA	2.64
TCATCACTTTCTTTAACACTGTGCTAG	2.79
TTACATATCAGTTTCGATTAGTGCTAG	10.4
GACGGTTTCGACTCTGGGGACGTGCTA	5.32
TCATCATTATTGTGTCAAACTGTGCTA	0.959
GACGGTCTCGGTCTCGGGGCGTGCTAG	0.0577
TCAGCTATTTTATATGCTACTGTGCTA	0.349
TTAGGTTTCGGACTGGGTTCGTGCTAG	5.2
GACGGACTGGACACTGGGGAAGTGCTA	-0.579
TCCTTCCACCATCTGATCAGGTGCTAG	0.371
TTAGATATCACACTGGATTAGTGCTAG	0.499
GACGGTTTCCTACTTCTGACGTGCTAG	0.21
TCAATTTTCTGAATGCCACTGTGCTAG	1.07
TAGTATTTTTTTCCAGAGGGGTGCTAG	0.56
TCCATTTTCTAAATGCCCTGGTGCTAG	0.762

Set 2
Target: Ras GTPase-activating protein-binding protein 1, full length (G3BP1, Homo sapiens, UniProt Q13283)
UniProt Q13283, sequence (whole entry, looked up): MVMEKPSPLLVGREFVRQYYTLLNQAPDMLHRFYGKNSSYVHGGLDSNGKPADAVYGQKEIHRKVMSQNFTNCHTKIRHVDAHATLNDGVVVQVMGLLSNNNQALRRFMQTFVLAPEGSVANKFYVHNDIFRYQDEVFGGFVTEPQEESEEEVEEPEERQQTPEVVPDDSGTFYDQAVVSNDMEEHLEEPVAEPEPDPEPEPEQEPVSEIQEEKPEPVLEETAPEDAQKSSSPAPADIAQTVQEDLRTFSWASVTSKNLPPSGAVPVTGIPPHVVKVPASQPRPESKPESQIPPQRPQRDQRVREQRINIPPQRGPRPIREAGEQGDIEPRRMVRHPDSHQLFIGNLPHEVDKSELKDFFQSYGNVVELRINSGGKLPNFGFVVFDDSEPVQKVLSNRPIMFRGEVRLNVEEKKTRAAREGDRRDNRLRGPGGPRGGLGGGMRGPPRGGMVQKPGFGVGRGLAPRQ
Method: RNA Bind-n-Seq
Molecule type: RNA
Sample: in vitro
Tested at: 200 nM
Setting: whole 134-nt RNA, ends assumed
With: 150 mM LiCl
Baseline: input library
Direction: higher = stronger binding
All molecules: 7-deaza-guanosine replaces G
All sequences stand within: GGGAGUUCUACAGUCCGACGAUC … UGGAAUUCUCGGGUGUCAAGG
Sequence	log2 enrichment
UAACUUUAGAGGAGGAUCUGAUGGAUACGGCAGUGGACGUGGAUUUGGGGAUGGCUAUAAUGGGUAUGGAGGAGGACCUGGAGGUGGCAA	-0.178
GUCCUGUGCUACACAUCGUAUGUACCGAAUCGGGUUUUUUUGGGAGGGAAAAAAAGGGAAAGUAUUAUGUUACGCCGUUCGGAUCUGCAC	-0.806
CAAGUCCUGUGCUACACAUCGUAUGUACCGAAUCGGGUUUUGGUUUUGGUUUUGGAAAGUAUUAUGUUACGCCGUUCGGAUCUGCACUUC	-0.742
UCCUCAAGUCCUGUGCUACACAUCGUAUGUACCGAAUCGGGGAGGAGGAGGAAAGUAUUAUGUUACGCCGUUCGGAUCUGCACUUCCAGC	-0.669
ACCAUGCAGGUGGGCAUCUUCGGGAAGUGGGGCAAGGGGGGGAUAGGGAGGGGGGUAACACUUUGGGAACAGGUGGUCCCAGGUCGUUUC	0.518
UUUUAAUUUGUUUGUCUCUCAUGAAACUAUGGUCUUUUAAAAAUUAAAGGUUUUUUUUUUCCCCUUAGACGAAACUGCAAAGGAAAUCCG	0.486
GAUGAUUACUAUGGUUAUGAUUAUCACGACUAUCGUGGAGGCUAUGAAGAUCCCUACUACGGCUAUGAUGAUGGCUAUGCAGUAAGAGGA	-1.48
AAGUCCUGUGCUACACAUCGUAUGUACCGAAUCGGGUUUUUGGGAAAAAGGGUGGGAAAGUAUUAUGUUACGCCGUUCGGAUCUGCACUU	-1.31

Set 3
Target: Histone acetyltransferase KAT6A, both winged helices, GST fusion (KAT6A, Homo sapiens, UniProt Q92794, residues 1-181)
Method: protein binding microarray
Molecule type: double-stranded DNA, one strand shown
Sample: in vitro
Tested at: not given
Setting: 8-mer, flanks averaged, mean of 2 arrays, mostly near background
Baseline: not given
Direction: higher = stronger binding
Construct (chain): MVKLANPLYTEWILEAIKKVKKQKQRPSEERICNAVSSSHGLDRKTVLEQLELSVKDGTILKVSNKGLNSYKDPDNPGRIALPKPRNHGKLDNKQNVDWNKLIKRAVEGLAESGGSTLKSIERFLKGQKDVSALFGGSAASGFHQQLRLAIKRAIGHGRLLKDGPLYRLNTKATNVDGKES
Sequence	E-score
GTGACCCA	-0.195
GCATACAC	-0.00966
ACCCTACC	-0.193
ACGCGAGC	0.184
AAACTACA	-0.0817
CGGGGGAG	-0.0233
AGGGCCGA	0.0894
CGCCCGGA	0.168
CAGTCTGA	-0.166
TCAACTCA	-0.245
ACCTACGT	-0.125
CGCAGCAA	0.0498
ATAGAATA	-0.0529

Set 4
Target: Centromere-binding protein 1, full length, N-terminal tag (CBF1, Saccharomyces cerevisiae, UniProt P17106, residues 1-351)
UniProt P17106, sequence (whole entry, looked up): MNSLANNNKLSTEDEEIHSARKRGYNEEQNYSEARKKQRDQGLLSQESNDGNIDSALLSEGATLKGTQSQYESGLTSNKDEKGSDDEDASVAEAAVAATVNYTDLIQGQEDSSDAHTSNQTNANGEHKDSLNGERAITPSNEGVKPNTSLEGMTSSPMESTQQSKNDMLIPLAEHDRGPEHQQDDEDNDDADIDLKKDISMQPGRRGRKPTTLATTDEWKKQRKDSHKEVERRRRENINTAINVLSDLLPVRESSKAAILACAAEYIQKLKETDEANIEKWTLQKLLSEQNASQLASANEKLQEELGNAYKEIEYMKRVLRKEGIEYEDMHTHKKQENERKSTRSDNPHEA
Method: protein-binding microarray
Molecule type: double-stranded DNA, one strand shown
Sample: in vitro
Tested at: 0.8 µM
Setting: whole 60-bp probe, no competitor
Direction: higher = stronger binding
All sequences stand within: … GTCTTGATTCGCTTGACGCTGCTG
Sequence	fluorescence intensity [a.u.]
GAATATATACATGTCAACACCACCATGACTATATAG	557
GAACAAAATGTAACCTACATCATGCGTAGGCTTTAG	543
GAACTACATCAAAATCACCTGTGCAATATATATTAG	851
CTACATCCTTTAAAACACGTTATTCTCTATTTTTTC	597
GAAAGACTCATATCCTTCGTGATTAGTTTCTTTTAG	541
CTACGCGCACGGCGTGACGTGGATCCCTAATGTTTC	898
CTAGAAGGAACATAACACGTTACTATTTGTCTATTC	614
CTAACGCCAATAGTAAACGTCACCCCGAGGTTTTTC	474
CTATTCTACAGCCCTGATGCAAGTGGAAGTTCTTTC	526
GAATTCCAAGTCTCACACGAGGCCTTTGTATTTTAG	494
GAAGTCACCTCCAGGTGATTTGCTGTCTTTATGTAG	520
CTAGTTAAAATGAACCATGTGCAAATCAGAAACTTC	793

Set 5
Target: RING finger protein unkempt homolog, zinc fingers 1-6, GST-SBP tag (UNK, Homo sapiens, UniProt Q9C0B0, residues 30-357)
Method: RNA Bind-n-Seq
Molecule type: RNA
Sample: in vitro
Tested at: not given
Setting: RNA with constant flanks, human and mouse sites, ends assumed
Baseline: input RNA pool
Direction: higher = stronger binding
All sequences stand within: GGGAGUUCUACAGUCCGACGAUC … CAACAGAGGAUUGAGCAUCA
Residues (chain): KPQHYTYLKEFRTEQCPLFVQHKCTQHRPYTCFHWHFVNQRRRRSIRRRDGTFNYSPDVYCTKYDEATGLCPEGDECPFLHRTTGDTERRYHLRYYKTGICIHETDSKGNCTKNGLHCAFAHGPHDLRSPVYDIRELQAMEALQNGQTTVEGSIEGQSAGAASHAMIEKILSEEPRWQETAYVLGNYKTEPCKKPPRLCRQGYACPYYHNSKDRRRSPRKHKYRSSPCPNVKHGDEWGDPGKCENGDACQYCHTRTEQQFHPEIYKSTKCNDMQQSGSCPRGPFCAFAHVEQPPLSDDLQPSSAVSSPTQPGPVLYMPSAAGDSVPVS
Sequence	bound/input enrichment
CUGCUCACCCAGUACGAGCGUGAGAAGGCGCUGCGCAGGCAGGCGGAGGAGAAAUUCAUUGAGUUUGAAGAUGCUCUGGAACAAGAGAAGAAAGAGCUGCAAAUCCAGGUGGAGCACUAC	0.0988 ratio
GUACCAAAACUAGACUAGGAAUGAUUUCUCUUGAACUCCUGUCAAUAUUUAUUUCCUCCAUCUAUAAUGGACAGUUAGAUGUGGGAUUUUUUGAUUUUACUCCAACUUUUUUUAAAGUGC	3.02 ratio
GACACGCUGCUGGGUGCCAUUAUUAUCCAUGAAGUUUAUGAAGAAGGAGCAGCAUGUAAAGAUGGAAGACUCUGGGCUGGAGAUCAGAUCUUAGAGGUGAAUGGAAUUGACUUGAGAAAG	1.07 ratio
AUUUGCAGAAACAGCGAGAACUUCAAAAGGCCAAUCAGUAAGUUUGAUUUGAAAAAUGAAUUUAGAGAUUUUUGGACAUGGAAUGAACAAAAUGGGGUCAUAUUGGUACCUCCCUCUCUA	0.296 ratio
GCUGAAGUACCACACAUUAGAGAAAGUGUAAUGAGACAAGGGCGCCAUCUGUGUUUCCAGUUAGUAAGUCCAACAGGAACAGCUGUUUCAACUCUUAGUUACAUAAGCAGGACAAAUCAG	0.463 ratio
AGUAUCAAUUGUGUGAGCUUGGGUGCGAGUGCACGCGUGCGUGAGUACGGAGAGUAUAUAUAGAUCUCUAUCUCUUAGCAAAGGUGAAUGCCAGAUGUAAAUGGCGCCUCUGGGCAAAGG	1 ratio
GGAAAUCGGGCUGAAGCGACUGAGUCCGCGAUGGAGAGAGAAAAGGAACAGUUCCGAAAGCUCUUUAUUGGUGGCUUAAGCUUUGAAACCACAGAAGAAAGUUUGAGAAACUACUAUGAG	0.221 ratio
AAGUUAUAACUGGCAUCUACUUCUUGUUCUUCUAGAACACCGAAAAUCUCUCCCAGCACUUUAGAAAGGGGACCCUGACUGUGUUAAAGAAGAAGUGGGAGAACCCAGGGCUGGGAGCAG	0.138 ratio
AAGGGGGAUCAGGAGAACGUACACCCGGAUGUGAUGCUGGUACAACCCAGAGUAGAAUUUAUUCUGUCUUUCAUUGACCACAUUGCUGGAGAUGAGGAUCACACAGAUGGAGUAGUAGCU	0.46 ratio

Set 6
Target: Sal-like protein 4, full length isoform B (SALL4, Homo sapiens, UniProt Q9UJQ4-2, residues 1-616)
Method: universal PBM
Molecule type: double-stranded DNA, one strand shown
Sample: in vitro
Tested at: not given
Setting: 8-mer, flanks averaged, mean of replicates
Direction: higher = stronger binding
Construct (chain): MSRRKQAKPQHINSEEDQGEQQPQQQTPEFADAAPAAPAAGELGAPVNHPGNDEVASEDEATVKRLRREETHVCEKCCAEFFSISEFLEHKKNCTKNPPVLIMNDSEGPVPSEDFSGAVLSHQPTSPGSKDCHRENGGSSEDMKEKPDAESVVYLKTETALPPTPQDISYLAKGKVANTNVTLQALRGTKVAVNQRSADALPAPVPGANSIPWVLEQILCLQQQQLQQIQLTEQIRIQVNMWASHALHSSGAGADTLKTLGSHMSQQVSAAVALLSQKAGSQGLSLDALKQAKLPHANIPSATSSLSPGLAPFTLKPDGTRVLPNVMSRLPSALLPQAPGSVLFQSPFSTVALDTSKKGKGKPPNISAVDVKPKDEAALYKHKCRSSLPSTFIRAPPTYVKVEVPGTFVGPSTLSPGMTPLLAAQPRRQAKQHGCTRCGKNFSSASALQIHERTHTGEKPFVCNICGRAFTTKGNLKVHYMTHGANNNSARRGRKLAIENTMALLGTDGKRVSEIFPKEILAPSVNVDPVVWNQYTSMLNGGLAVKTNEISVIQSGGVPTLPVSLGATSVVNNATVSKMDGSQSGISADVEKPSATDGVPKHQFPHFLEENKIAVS
Sequence	E-score
AGTTGAGA	-0.0415
CTATAAGC	0.157
ACGGCGCA	-0.235
CCCCTATA	0.125
ACGTTGGC	-0.102
AATGATAC	0.263
CAGGTACA	-0.0276
ACGCTTAT	0.08
GCCCAGGA	-0.262
CCAACTTC	-0.0374
CTTCACGC	-0.0714
GATAAAAA	0.3

Set 7
Target: CCNB3, cyclin fold, Cln2 fusion (human)
Method: yeast growth competition, sequencing
Sample: yeast
Setting: weak parent motif
Baseline: not given
Direction: higher = stronger binding
Parent: PKMYT1 docking peptide (human); SFEPRNLLSLFED; partner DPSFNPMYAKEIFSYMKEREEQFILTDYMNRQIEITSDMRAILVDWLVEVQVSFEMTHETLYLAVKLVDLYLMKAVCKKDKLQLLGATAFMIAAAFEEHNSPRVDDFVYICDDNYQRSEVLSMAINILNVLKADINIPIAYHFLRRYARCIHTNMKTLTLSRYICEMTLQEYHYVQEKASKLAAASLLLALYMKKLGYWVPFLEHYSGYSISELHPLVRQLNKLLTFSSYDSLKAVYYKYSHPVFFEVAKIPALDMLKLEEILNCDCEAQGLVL
Substitution	normalised enrichment score
SFEPRELLSLFED [N6E]	0.44
SFEVRNLLSLFED [P4V]	0.483
SFEPLNLLSLFED [R5L]	0.513
SFEPRNLLWLFED [S9W]	0.863
SFEPRNLESLFED [L8E]	-2.36
EFEPRNLLSLFED [S1E]	-0.144
SFEPRNPLSLFED [L7P]	-0.0129
SFEPRNLLSLFDD [E12D]	0.672
SFEPRHLLSLFED [N6H]	0.482
SFEFRNLLSLFED [P4F]	0.851
SFEPRNLLLLFED [S9L]	0.648
AFEPRNLLSLFED [S1A]	0.126
SGEPRNLLSLFED [F2G]	0.432
SFYPRNLLSLFED [E3Y]	0.512

Repeated from above (set 3):
Sequence	E-score
GCATACAC	-0.00966
CGCCCGGA	0.168
CGGGGGAG	-0.0233
CGCAGCAA	0.0498
AGGGCCGA	0.0894
ACGCGAGC	0.184
